{"data": "Experimental data from different studies", "note": "Parts stem from different laboratories: compare values within a part only. Values joined by “and” are separate records of one study, mostly repeats; a detail may differ.", "chain of UniProt P10721 (whole entry, unmodified, looked up)": "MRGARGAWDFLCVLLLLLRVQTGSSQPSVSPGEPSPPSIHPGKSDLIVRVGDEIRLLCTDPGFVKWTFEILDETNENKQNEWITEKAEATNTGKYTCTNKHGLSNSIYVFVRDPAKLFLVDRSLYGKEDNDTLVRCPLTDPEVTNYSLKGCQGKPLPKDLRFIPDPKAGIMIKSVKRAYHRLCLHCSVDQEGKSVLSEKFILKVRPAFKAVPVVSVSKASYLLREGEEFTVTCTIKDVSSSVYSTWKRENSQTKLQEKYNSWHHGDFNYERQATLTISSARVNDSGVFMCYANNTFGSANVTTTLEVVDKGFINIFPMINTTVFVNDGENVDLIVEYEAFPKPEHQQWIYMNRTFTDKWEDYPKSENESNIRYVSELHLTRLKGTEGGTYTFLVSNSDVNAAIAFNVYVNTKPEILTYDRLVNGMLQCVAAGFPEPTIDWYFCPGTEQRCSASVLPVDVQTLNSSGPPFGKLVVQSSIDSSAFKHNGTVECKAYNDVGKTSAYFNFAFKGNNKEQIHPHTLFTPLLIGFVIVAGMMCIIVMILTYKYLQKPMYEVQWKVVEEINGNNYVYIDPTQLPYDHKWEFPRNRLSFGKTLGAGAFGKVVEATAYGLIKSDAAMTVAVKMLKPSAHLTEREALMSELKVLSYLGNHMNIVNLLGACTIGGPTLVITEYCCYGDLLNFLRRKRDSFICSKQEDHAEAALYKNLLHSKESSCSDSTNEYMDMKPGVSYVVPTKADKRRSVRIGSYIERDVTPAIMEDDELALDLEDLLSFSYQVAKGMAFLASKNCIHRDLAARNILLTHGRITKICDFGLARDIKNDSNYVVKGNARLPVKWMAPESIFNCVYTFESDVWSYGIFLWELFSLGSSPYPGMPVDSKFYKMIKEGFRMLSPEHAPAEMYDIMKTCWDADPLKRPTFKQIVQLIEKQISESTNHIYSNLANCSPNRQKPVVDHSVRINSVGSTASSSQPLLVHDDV", "chain of UniProt Q13188 (whole entry, looked up)": "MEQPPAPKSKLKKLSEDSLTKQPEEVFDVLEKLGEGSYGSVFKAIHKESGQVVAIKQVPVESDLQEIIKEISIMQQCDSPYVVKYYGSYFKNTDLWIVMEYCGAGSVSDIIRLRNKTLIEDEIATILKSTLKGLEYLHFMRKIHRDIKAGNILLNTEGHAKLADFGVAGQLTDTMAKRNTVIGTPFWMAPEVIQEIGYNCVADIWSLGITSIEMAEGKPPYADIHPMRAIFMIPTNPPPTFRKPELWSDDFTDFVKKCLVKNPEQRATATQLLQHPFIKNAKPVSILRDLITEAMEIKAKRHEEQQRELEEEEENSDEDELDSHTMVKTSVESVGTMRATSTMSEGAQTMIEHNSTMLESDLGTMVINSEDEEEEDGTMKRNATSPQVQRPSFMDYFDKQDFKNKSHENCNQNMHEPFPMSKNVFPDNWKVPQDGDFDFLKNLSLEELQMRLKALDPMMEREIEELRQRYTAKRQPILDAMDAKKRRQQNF", "chain of UniProt Q8WTQ7 (whole entry, looked up)": "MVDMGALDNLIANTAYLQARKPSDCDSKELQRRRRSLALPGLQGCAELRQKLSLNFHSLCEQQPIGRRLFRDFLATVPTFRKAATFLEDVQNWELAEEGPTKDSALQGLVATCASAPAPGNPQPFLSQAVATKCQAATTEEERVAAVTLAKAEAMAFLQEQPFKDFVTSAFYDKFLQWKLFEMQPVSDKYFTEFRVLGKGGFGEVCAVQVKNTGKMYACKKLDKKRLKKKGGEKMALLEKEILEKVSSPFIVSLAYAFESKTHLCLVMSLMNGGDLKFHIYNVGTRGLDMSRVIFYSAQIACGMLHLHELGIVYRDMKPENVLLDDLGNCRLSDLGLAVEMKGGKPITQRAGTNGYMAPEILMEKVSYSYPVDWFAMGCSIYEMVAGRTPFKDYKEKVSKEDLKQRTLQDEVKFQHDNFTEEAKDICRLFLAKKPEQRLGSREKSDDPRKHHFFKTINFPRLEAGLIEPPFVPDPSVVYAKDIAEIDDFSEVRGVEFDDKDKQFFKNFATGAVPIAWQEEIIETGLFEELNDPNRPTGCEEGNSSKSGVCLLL", "chain of UniProt P42684 (whole entry, looked up)": "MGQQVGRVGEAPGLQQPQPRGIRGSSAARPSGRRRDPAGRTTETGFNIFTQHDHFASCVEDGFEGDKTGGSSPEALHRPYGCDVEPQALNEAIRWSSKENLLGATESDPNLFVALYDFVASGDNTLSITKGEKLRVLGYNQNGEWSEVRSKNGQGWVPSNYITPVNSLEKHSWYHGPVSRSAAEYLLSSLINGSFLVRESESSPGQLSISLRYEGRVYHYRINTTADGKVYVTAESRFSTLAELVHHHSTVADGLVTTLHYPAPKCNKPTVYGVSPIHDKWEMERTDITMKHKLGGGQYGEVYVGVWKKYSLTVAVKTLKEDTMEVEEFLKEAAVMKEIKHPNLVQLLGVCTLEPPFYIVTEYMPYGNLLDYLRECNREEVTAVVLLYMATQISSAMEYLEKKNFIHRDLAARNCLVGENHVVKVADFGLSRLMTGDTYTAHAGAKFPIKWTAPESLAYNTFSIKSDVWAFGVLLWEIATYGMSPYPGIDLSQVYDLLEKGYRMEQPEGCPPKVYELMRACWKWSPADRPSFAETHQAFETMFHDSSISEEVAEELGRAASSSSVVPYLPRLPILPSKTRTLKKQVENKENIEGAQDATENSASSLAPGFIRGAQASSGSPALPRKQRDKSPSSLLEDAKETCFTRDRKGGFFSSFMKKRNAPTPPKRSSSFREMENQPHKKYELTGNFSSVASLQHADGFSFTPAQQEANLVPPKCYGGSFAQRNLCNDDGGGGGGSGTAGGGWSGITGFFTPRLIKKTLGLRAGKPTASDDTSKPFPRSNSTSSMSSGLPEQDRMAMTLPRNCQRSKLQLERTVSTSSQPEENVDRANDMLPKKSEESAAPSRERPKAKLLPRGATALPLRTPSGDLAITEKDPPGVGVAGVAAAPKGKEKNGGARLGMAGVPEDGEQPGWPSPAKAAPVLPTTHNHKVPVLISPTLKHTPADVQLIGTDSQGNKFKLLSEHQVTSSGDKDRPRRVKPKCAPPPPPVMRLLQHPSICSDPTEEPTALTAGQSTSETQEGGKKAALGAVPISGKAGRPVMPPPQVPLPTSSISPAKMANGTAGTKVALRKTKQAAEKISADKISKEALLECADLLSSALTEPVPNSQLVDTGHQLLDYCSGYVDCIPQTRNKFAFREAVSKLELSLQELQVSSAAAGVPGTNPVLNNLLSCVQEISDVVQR", "chain of UniProt P49841 (whole entry, looked up)": "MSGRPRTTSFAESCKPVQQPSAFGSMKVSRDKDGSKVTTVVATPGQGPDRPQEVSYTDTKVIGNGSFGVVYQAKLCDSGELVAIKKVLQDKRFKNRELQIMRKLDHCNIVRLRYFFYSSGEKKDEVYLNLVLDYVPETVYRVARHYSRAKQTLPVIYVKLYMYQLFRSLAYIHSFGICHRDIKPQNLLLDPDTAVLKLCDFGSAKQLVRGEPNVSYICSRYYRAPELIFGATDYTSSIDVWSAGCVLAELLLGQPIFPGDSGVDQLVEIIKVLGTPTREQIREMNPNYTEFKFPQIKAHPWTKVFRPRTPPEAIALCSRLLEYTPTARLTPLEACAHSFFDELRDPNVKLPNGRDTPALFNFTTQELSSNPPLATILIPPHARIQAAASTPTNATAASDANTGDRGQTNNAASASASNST", "chain of UniProt P06239 (whole entry, looked up)": "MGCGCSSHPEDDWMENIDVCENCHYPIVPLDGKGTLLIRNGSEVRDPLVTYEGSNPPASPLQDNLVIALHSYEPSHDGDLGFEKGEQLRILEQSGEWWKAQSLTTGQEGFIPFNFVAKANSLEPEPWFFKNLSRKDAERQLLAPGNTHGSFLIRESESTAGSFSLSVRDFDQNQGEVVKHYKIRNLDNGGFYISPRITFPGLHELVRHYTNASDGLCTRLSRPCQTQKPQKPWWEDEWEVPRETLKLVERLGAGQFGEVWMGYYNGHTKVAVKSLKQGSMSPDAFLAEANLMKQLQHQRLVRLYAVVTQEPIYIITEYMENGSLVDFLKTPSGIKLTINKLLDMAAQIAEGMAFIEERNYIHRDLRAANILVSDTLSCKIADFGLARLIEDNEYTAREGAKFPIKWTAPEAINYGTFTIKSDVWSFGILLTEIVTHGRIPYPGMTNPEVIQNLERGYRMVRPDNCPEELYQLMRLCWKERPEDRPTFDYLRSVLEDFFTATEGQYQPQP", "chain of UniProt Q15349 (whole entry, looked up)": "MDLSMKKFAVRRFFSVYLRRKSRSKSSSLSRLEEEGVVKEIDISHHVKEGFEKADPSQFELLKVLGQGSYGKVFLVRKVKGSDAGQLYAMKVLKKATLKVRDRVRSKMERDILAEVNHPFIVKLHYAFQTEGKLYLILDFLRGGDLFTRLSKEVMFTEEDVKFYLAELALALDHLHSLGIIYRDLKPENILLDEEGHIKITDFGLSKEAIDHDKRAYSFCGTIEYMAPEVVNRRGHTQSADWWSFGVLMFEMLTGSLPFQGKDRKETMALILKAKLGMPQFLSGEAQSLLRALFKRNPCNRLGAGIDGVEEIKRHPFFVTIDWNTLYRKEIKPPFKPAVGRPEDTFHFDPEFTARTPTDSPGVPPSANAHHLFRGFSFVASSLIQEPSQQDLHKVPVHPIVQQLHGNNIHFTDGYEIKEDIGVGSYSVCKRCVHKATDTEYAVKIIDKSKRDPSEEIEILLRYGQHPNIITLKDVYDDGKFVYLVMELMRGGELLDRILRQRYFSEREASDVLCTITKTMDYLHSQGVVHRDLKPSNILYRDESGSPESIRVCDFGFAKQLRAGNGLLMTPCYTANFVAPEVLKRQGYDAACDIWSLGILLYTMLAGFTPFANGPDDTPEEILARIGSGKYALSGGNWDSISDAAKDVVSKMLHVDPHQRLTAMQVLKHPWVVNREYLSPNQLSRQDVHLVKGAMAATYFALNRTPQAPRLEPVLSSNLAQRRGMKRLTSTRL"}
{"data": "Sample 1", "SMILES": "CO[C@H]1CC[C@H](CNc2ccc(S(=O)(=O)NC(=O)c3ccc(N4CCN(CC5=C(c6ccc(Cl)cc6)CC(C)(C)CC5)CC4)cc3Oc3cnc4[nH]ccc4c3)cc2[N+](=O)[O-])CC1", "observed": "cell-free assay", "method": "competition with immobilised ligand", "concentration": "1 µM"}
{"target": "KIT (Homo sapiens, UniProt P10721, L576P)", "remaining binding": "100%"}
{"target": "Tyrosine-protein kinase ABL1, phosphorylated (ABL1, Homo sapiens, UniProt P00519, Q252H)", "remaining binding": "100%"}
{"target": "FGFR4 (Homo sapiens, UniProt P22455)", "remaining binding": "87%"}
{"target": "YES1 (Homo sapiens, UniProt P07947)", "remaining binding": "88%"}
{"target": "STK38 (Homo sapiens, UniProt Q15208)", "remaining binding": "98%"}
{"target": "PIK3CD (Homo sapiens, UniProt O00329)", "remaining binding": "75%"}
{"target": "DDR1 (Homo sapiens, UniProt Q08345)", "remaining binding": "99%"}
{"target": "KIT (Homo sapiens, UniProt P10721, T670I/V559D)", "remaining binding": "88%"}
{"target": "ERBB3 (Homo sapiens, UniProt P21860)", "remaining binding": "100%"}
{"target": "BRSK1 (Homo sapiens, UniProt Q8TDC3)", "remaining binding": "100%"}
{"target": "TNK2 (Homo sapiens, UniProt Q07912)", "remaining binding": "96%"}
{"target": "SNRK (Homo sapiens, UniProt Q9NRH2)", "remaining binding": "100%"}
{"target": "KIT (Homo sapiens, UniProt P10721, A829P)", "remaining binding": "100%"}
{"target": "DCLK3 (Homo sapiens, UniProt Q9C098)", "remaining binding": "84%"}
{"target": "STK3 (Homo sapiens, UniProt Q13188)", "remaining binding": "85%"}
{"data": "Sample 2", "Structure (SMILES)": "C[C@@H]1CCN(C(=O)CC#N)C[C@@H]1N(C)c1ncnc2[nH]ccc12", "observed": "enzyme activity", "mode": "inhibitor", "concentration": "0.5 µM", "relative to": "control"}
{"target": "RPS6KA2 (Homo sapiens, UniProt Q15349)", "remaining activity [%]": 89.7}
{"target": "MAP3K14 (Homo sapiens, UniProt Q99558)", "remaining activity [%]": 107}
{"target": "ULK3 (Homo sapiens, UniProt Q6PHR2)", "remaining activity [%]": 101}
{"target": "GRK7 (Homo sapiens, UniProt Q8WTQ7)", "remaining activity [%]": 102}
{"target": "FGFR3 (Homo sapiens, UniProt P22607)", "remaining activity [%]": 95.3}
{"target": "ARAF (Homo sapiens, UniProt P10398)", "remaining activity [%]": 102}
{"target": "MAP2K2 (Homo sapiens, UniProt P36507)", "remaining activity [%]": 117}
{"target": "TEK (Homo sapiens, UniProt Q02763)", "remaining activity [%]": 96.6}
{"target": "NEK6 (Homo sapiens, UniProt Q9HC98)", "remaining activity [%]": 83.2}
{"target": "TBK1 (Homo sapiens, UniProt Q9UHD2)", "remaining activity [%]": 92.5}
{"target": "MST1R (Homo sapiens, UniProt Q04912)", "remaining activity [%]": 102}
{"target": "MAPKAPK2 (Homo sapiens, UniProt P49137)", "remaining activity [%]": 96.6}
{"target": "GSK3B (Homo sapiens, UniProt P49841)", "remaining activity [%]": 99.6}
{"target": "MAP3K5 (Homo sapiens, UniProt Q99683)", "remaining activity [%]": 97.8}
{"target": "EPHA3 (Homo sapiens, UniProt P29320)", "remaining activity [%]": 94.1}
{"target": "TAOK2 (Homo sapiens, UniProt Q9UL54)", "remaining activity [%]": 100}
{"target": "LCK (Homo sapiens, UniProt P06239)", "remaining activity [%]": 80.2}
{"target": "ULK2 (Homo sapiens, UniProt Q8IYT8)", "remaining activity [%]": 92}
{"target": "MERTK (Homo sapiens, UniProt Q12866)", "remaining activity [%]": 114}
{"target": "FRK (Homo sapiens, UniProt P42685)", "remaining activity [%]": 106}
{"target": "MAPK3 (Homo sapiens, UniProt P27361)", "remaining activity [%]": 98.6}
{"target": "ACVR1B (Homo sapiens, UniProt P36896)", "remaining activity [%]": 99.8}
{"target": "ABL2 (Homo sapiens, UniProt P42684)", "remaining activity [%]": 90.5}
{"data": "Sample 3", "organism": "Sarcocystis neurona", "observed": "parasite growth", "concentration": "10 µM", "time": "96 h", "setting": "secondary screen"}
{"SMILES": "NS(=O)(=O)Cc1noc2ccccc12", "inhibition": "-9.7%"}
{"SMILES": "Nc1nc(F)nc2c1ncn2[C@@H]1O[C@H](CO)[C@@H](O)[C@@H]1O", "inhibition": "-19.7%"}
{"SMILES": "CC[C@H]1OC(=O)[C@H](C)C(=O)[C@H](C)[C@@H](O[C@@H]2O[C@H](C)C[C@H](N(C)C)[C@H]2O)[C@](C)(OC)C[C@@H](C)C(=O)[C@H](C)[C@H]2N(CCCCn3cnc(-c4cccnc4)c3)C(=O)O[C@]12C", "inhibition": "-20.8%"}
{"SMILES": "Cc1noc(NS(=O)(=O)c2ccc(N)cc2)c1C", "inhibition": "-25.4%"}
{"SMILES": "CO/N=C(\\C(=O)N[C@@H]1C(=O)N2C(C(=O)O)=C(COC(C)=O)CS[C@H]12)c1csc(N)n1", "inhibition": "-12%"}
{"SMILES": "CCOC(=O)O[C@]1(C(=O)OCCl)CC[C@H]2[C@@H]3CCC4=CC(=O)C=C[C@]4(C)[C@H]3[C@@H](O)C[C@@]21C", "inhibition": "-27.2%"}
{"SMILES": "O=C(c1ccc(OCCN2CCCCC2)cc1)c1c(-c2ccc(O)cc2)sc2cc(O)ccc12", "inhibition": "-25.7%"}
{"SMILES": "CC(=O)OCC(=O)[C@@]1(O)CC[C@H]2[C@@H]3C[C@H](C)C4=CC(=O)C=C[C@]4(C)[C@H]3[C@@H](O)C[C@@]21C", "inhibition": "-20.7%"}
{"SMILES": "CNNCc1ccc(C(=O)NC(C)C)cc1", "inhibition": "-15%"}
{"SMILES": "CC(=O)NS(=O)(=O)c1ccc(N)cc1", "inhibition": "-8%"}
{"SMILES": "O=C(CCNNC(=O)c1ccncc1)NCc1ccccc1", "inhibition": "-14.2%"}
{"SMILES": "Cc1cccc(Nc2ccccc2C(=O)O)c1C", "inhibition": "-14.2%"}
{"SMILES": "CNS(=O)(=O)Cc1ccc2[nH]cc(CCN(C)C)c2c1", "inhibition": "-24.9%"}
{"SMILES": "CC(=O)OCC(=O)NCCCOc1cccc(CN2CCCCC2)c1", "inhibition": "-37.4%"}
{"data": "Sample 4", "cell line": "mouse MPNST tumor cells", "method": "high-content nuclear imaging", "item": "cell number", "concentration": "10 µM", "time": "12 h", "setting": "mean of 2 replicates", "relative to": "plate mean", "reading": "higher = more cells"}
{"SMILES": "COc1cc(N2CCOCC2)ccc1Nc1ncc(F)c(Nc2ccccc2NS(C)(=O)=O)n1", "nuclei count": "1.63 z-score"}
{"SMILES": "c1ccc2c(c1)Cc1c(Nc3ccc4c(c3)OCCO4)n[nH]c1-2", "nuclei count": "-4.21 z-score"}
{"SMILES": "Clc1cccc(Nc2nnc(-c3ccccc3)c3ccccc23)c1", "nuclei count": "4.74 z-score"}
{"SMILES": "Cc1ccccc1NC(=O)Nc1ccc(CC(=O)N(C)[C@@H](CC(C)C)C(=O)NCC[C@H](NC(=O)[C@@H]2CCCN2S(=O)(=O)c2cc(Cl)cc(Cl)c2)C(=O)O)cc1", "nuclei count": "0.724 z-score"}
{"SMILES": "FC(F)(F)c1ccc(/C=C/c2nc(COc3ccc(CCCCn4ccnn4)cc3)co2)cc1", "nuclei count": "0.114 z-score"}
{"SMILES": "CCN1CCC[C@H]1CNC(=O)c1cc(S(N)(=O)=O)ccc1OC", "nuclei count": "0.783 z-score"}
{"SMILES": "CSc1nc(N)cc(Oc2ccc(-c3nc(Nc4cccc(C(F)(F)F)c4)n[nH]3)cc2)n1", "nuclei count": "-3.92 z-score"}
{"SMILES": "CCN(CC)C(=O)N1CCN(C)CC1", "nuclei count": "1.6 z-score and 0.358 z-score"}
{"SMILES": "Cc1onc(C(=O)N2CCN(C(c3ccc(Cl)cc3)c3ccc(Cl)cc3)CC2)c1[N+](=O)[O-]", "nuclei count": "-3.69 z-score"}
{"note": "A few entries again (sample 1):"}
{"target": "FGFR4 (Homo sapiens, UniProt P22455)", "remaining binding": "87%"}
{"target": "YES1 (Homo sapiens, UniProt P07947)", "remaining binding": "88%"}
{"target": "STK38 (Homo sapiens, UniProt Q15208)", "remaining binding": "98%"}
{"target": "PIK3CD (Homo sapiens, UniProt O00329)", "remaining binding": "75%"}
{"target": "DDR1 (Homo sapiens, UniProt Q08345)", "remaining binding": "99%"}
{"target": "KIT (Homo sapiens, UniProt P10721, T670I/V559D)", "remaining binding": "88%"}
{"target": "ERBB3 (Homo sapiens, UniProt P21860)", "remaining binding": "100%"}
{"target": "BRSK1 (Homo sapiens, UniProt Q8TDC3)", "remaining binding": "100%"}
